# Results of several laboratories.
# Each line is one published result; not all experiments were run side by side. ± gives the spread as reported.
SMILES,assay,system,setting,scale,measurement,value
CC[C@H](C)[C@@H]1NC(=O)[C@@H]2CSSC[C@H](NC(=O)[C@H](CCCNC(=N)N)NC(=O)[C@@H]3CSSC[C@H](NC1=O)C(=O)N[C@@H]([C@@H](C)O)C(=O)N[C@@H](CCCNC(=N)N)C(=O)NCC(=O)N[C@@H](Cc1ccccc1)C(=O)N3)C(=O)N[C@@H](CC(C)C)C(=O)N[C@H]1CSSC[C@H](NC(=O)[C@H](C(C)C)NC(=O)CNC(=O)[C@H](CCCNC(=N)N)NC(=O)[C@H](CCCNC(=N)N)NC1=O)C(=O)N[C@@H](CCCNC(=N)N)C(=O)N2,,"Sprague-Dawley rats, female, lung",5 mg/kg,direction not given,increased vein intima score,1 to 2
CC(C)[C@@H]1NC(=O)CNC(=O)[C@H](CC(N)=O)NC(=O)[C@H](CCCNC(=N)N)NC(=O)[C@H](Cc2ccc(O)cc2)NC(=O)[C@H](C(C)C)NC(=O)[C@@H](NC(=O)[C@@H](NC(=O)[C@H](CC(N)=O)NC(=O)[C@H](Cc2c[nH]c3ccccc23)NC(=O)[C@H](C)NC(=O)[C@H](Cc2ccccc2)NC(=O)CN)C(C)C)CSSC[C@@H](C(=O)N[C@@H](Cc2c[nH]cn2)C(=O)N[C@@H](CCCNC(=N)N)C(=O)N[C@@H](CCCNC(=N)N)C(=O)N[C@@H](C)C(=O)N[C@@H](CC(N)=O)C(N)=O)NC(=O)[C@H](C(C)C)NC(=O)[C@H](CCCNC(=N)N)NC1=O,"circular dichroism, measured: Parallel",PBS,"80 µM, pH 7.4",,secondary structure content,3%
COc1ncnn2ccc(-c3cnc4nc(C)n(Cc5nnc([C@@H](C)F)o5)c4c3)c12,,human,"oral, dose not given, grade 2",,patients with hyponatremia,14.3%
Cn1cncc1-c1c(F)cncc1NC(=O)c1c(N)nn2cc(F)cnc12,,human patients,"oral, 220 mg once daily",,grade ≥3 neutrophil decrease incidence,0%
Clc1ccc(Cl)c(-c2cc(Cl)ccc2Cl)c1,,"Sprague Dawley rat female, adipose tissue","intraperitoneal, 1 mg/kg, 3 weeks",,concentration,55 ng/g
CCS(=O)(=O)Nc1ccc(Oc2ccc(F)cc2F)c(-c2cn(C)c(=O)c3[nH]ccc23)c1,fatal malignant neoplasm progression,"human, relapsed/refractory AML","oral, dose not given",,treatment-emergent adverse events,0%
Cc1cccc(Cn2nc(C3CC3)c3c(NC(=O)c4cnc5cc(OCCN6CCN(C)CC6)ccn45)cccc32)n1,"CTCAE v4.03, measured: all adverse events",PD-1/PD-L1 inhibitor-refractory patients,"oral, dose not given, added: pembrolizumab IV every 3 weeks",,all-cause adverse events,100%
CN1CC[C@@H](c2c(O)cc(O)c3c(=O)cc(-c4ccc(C(F)(F)F)cc4Cl)oc23)[C@@H]1CO,measured: Hyperglycemia,relapsed B-cell malignancies,"oral, 150 mg, grade 3-4, intermittent dosing",,patients with adverse event,0%
NC(=O)c1cccc(-c2cc(OC(=O)NC3CCCCC3)ccc2O)c1,,mouse,"oral, 10 mg/kg",,apparent volume of distribution,313 L/kg
CC(C)c1nc(N(C)S(C)(=O)=O)nc(-c2ccc(F)cc2)c1/C=C/[C@@H](O)C[C@@H](O)CC(=O)O,,healthy human subjects,"oral, dose not given, study CL-0537 safety set",,incidence of nervous system disorders,0%
CO[C@H]1C[C@@H]2CC[C@@H](C)[C@@](O)(O2)C(=O)C(=O)N2CCCC[C@H]2C(=O)O[C@H]([C@H](C)C[C@@H]2CC[C@@H](OC(=O)NCCOCCOCCOCCOCCOCCOCCOCCOCCC(=O)N3CCc4cc(Cn5nc(-c6ccc7oc(N)nc7c6)c6c(N)ncnc65)ccc4C3)[C@H](OC)C2)C[C@@H](O)[C@H](C)/C=C(\C)[C@@H](O)[C@@H](OC)C(=O)[C@H](C)C[C@H](C)/C=C/C=C/C=C/1C,"phase 1 dose escalation, measured: diarrhoea",advanced solid tumour patients,"intravenous, 10 mg weekly, grade ≥3",,TRAE incidence,0%
CN1CCN(S(=O)(=O)c2cc([N+](=O)[O-])ccc2N(CCOS(C)(=O)=O)CCOS(C)(=O)=O)CC1,,"naive NOD/SCID mice, pooled blood","intraperitoneal, 25 mg/kg, week 4",,ALT,32 U/L
COc1ncccc1-c1cnn2ccc(N3CCN(C(=O)OC(C)C)CC3)nc12,,"mouse nerve ligation model, plasma","oral, 30 mg/kg, 120 min after last dose, repeat dosing day 2",,drug concentration,5.8 µM
CC1(C)C(/C=C(\Cl)C(F)(F)F)C1C(=O)OC(C#N)c1cccc(Oc2ccccc2)c1 (stereo not shown),measured: CYP3A4,"human, age 5 years",,,enzyme contribution to clearance,1.2%
O=C(O)CCC(CP(=O)(O)O)C(=O)O (stereo not shown),,"NSG mice, C4-2 xenograft, salivary glands","intravenous, 3 mg/kg, 0.25 to 6 h",,AUC(0-t),2.7 ± 0.4 nmol·h/g
C[C@@H]1OC(=O)NN=C1c1ccc(-c2ccc(F)cc2)c(C(F)(F)F)c1,"phase I trial, measured: Dyspnoea worst grade 2",human patients,20 mg loading then 1 mg daily,,patients with adverse event,50%
O=C(c1ccc(F)c(F)c1Nc1ccc(I)cc1F)N1CC(O)([C@@H]2CCCCN2)C1,,patients aged 6 to sample A years,"oral, dose not given",,adverse events,100%
C[C@@H](NC(=O)N1C(=O)[C@H](Cc2ccnc(N)c2)[C@H]1C(=O)O)C1CCCCC1,,healthy Chinese adult volunteers,"continuous intravenous infusion, dose not given, 5.0 days, CTCAE 5.0, all doses",,"adverse events, moderate",2.5%
CNC(=O)n1ccc2cc(Oc3ccnc(NC(=O)c4ccc(C5CCN(CCO)CC5)cc4)c3)c(OCCOC)cc21,,"healthy human, plasma","oral, dose not given, added: rabeprazole steady state",baseline: compound alone,AUC(0-inf) change,~8%
CN(C(=O)n1cnc(-c2ccc[n+]([O-])c2)c1)C1CCCCC1,,"Wistar rat, cerebral cortex","oral, 10 mg/kg, 1 h, single dose",,concentration,249 ± 33.2 ng/g
O=[N+]([O-])c1ccc2c(c1)S(=O)(=O)C=C2,,"male C57BL/6 mice, blood","intraperitoneal, 10 mg/kg, day 8, group average",,plateletcrit,5.1 mL/L
C[C@H]1COCCN1c1nc(NCc2cccnc2C(F)(F)F)c2cccnc2n1,,conscious rat,"intravenous, 30 mg/kg",baseline: control,QRS change,26.9%
O=S(=O)(Nc1ccccc1)c1ccc(NC(=S)Nc2ccccc2)cc1,measured: BA%,"male mouse, blood","oral, 80 mg/kg daily, 14 days",,blood cell fraction,0.34%
COc1cc2c(Oc3ccc4[nH]c(C)cc4c3F)ccnc2cc1OCC1(N)CC1,measured: grade 1 or 2 weight loss,paediatric high-risk refractory sarcoma,whole group,,incidence of adverse event,11.8%
O=C(Nc1ccccc1)C1CCN(C(=O)Oc2cccnc2)CC1,adverse event reporting,healthy women,"oral, 60 mg, 7 days",,subjects with Overall adverse event,85.7%
Fc1ccc([C@@H]2CCNC[C@H]2COc2ccc3c(c2)OCO3)cc1,measured: Cough,healthy volunteers,"oral, dose not given, given -1 h relative to LSD, added: LSD",direction not given,List of Complaints score,1 score
C=CCNc1c(O)cc2c(O)c1C[C@@H](C)C[C@H](OC)[C@H](O)[C@@H](C)/C=C(\C)[C@H](OC(N)=O)[C@@H](OC)/C=C\C=C(/C)C(=O)N2,measured: headache,unresectable or metastatic GIST/STS,"intravenous, dose not given, all patients",,patients with related AEs,44%
COc1ccc(-c2c(-c3ccc(C#N)c(F)c3)nc(N3CCC(N)CC3)n(C)c2=O)cc1F,measured: Fatigue,human patients,"oral, 60 mg, dose expansion",,serious adverse event incidence,5%
COc1ccc2nc3cc(Cl)ccc3c(Nc3cc(CN4CCCC4)c(O)c(CN4CCCC4)c3)c2n1,,"mouse, blood","intraperitoneal, 28 mg/kg",,urea level,2.71 µmol/L
O=C1Nc2cc3[nH]nc(-c4ccncc4)c3cc2CN1Cc1ccccc1,CTCAE v4.03,"human, relapsed or refractory advanced solid tumours","intravenous, 7.2 mg/kg, pooled schedules",,patients with rash,0%
[O-][S+]1CCc2nc(N3CCC(c4ncc(Cl)cn4)CC3)nc(NC3(CO)CCC3)c21 (stereo not shown),measured: gastrointestinal disorders,healthy male subjects,"dose not given, multiple rising dose, total",,subjects with adverse event,18.8%
CCc1ccc(CC/C=C/c2ccc3c(c2)C(=O)CC3)cc1,,"Sprague-Dawley rat, female","oral, 30 mg/kg/day, 14 days",,Eosinophil percentage,0.77%
C=CC(=O)Nc1cc(Nc2nccc(Nc3cc(Cl)c(F)cc3C(C)(C)O)n2)c(OC)cc1N1CC[C@@H](N(C)C)C1,treatment-emergent adverse events,human,"oral, 200 mg, phase I clinical trial",,incidence of blood creatine phosphokinase increased,18.8%
O=C(Nc1ccc2c(c1)B(O)OC2)c1ccc(OCc2ccc(Cl)cc2)cc1,PAMPA,pre-coated trilayer membrane,"200 µM, 5 h, pH 7.4, donor plate, PBS",,donor concentration,164 ± 16.8 µM
N#C[C@@]1(n2ccc(N)nc2=O)O[C@H](CO)[C@@H](O)[C@H]1O,,human liver microsomes,"1 µM, pH 7.4",,microsomal stability time,≥ 2 h
C[C@]1(CO)Cc2ncn(-c3ccc(C#N)c(Cl)c3)c2C(=O)O1,investigator-assessed,human,"20 mg multiple doses, fasted",,subjects with drug-related TEAEs,11.1%
COc1cc(Nc2ncc(F)c(Nc3ccc4c(n3)NC(=O)C(C)(C)O4)n2)cc(OC)c1OC,,kinase assay buffer,"24 h, 0.1% DMSO",,solubility,38.6 µM

# Excerpt of the above:
SMILES,assay,system,setting,scale,measurement,value
C[C@@H](NC(=O)N1C(=O)[C@H](Cc2ccnc(N)c2)[C@H]1C(=O)O)C1CCCCC1,,healthy Chinese adult volunteers,"continuous intravenous infusion, dose not given, 5.0 days, CTCAE 5.0, all doses",,"adverse events, moderate",2.5%
O=C(Nc1ccccc1)C1CCN(C(=O)Oc2cccnc2)CC1,adverse event reporting,healthy women,"oral, 60 mg, 7 days",,subjects with Overall adverse event,85.7%
CC[C@H](C)[C@@H]1NC(=O)[C@@H]2CSSC[C@H](NC(=O)[C@H](CCCNC(=N)N)NC(=O)[C@@H]3CSSC[C@H](NC1=O)C(=O)N[C@@H]([C@@H](C)O)C(=O)N[C@@H](CCCNC(=N)N)C(=O)NCC(=O)N[C@@H](Cc1ccccc1)C(=O)N3)C(=O)N[C@@H](CC(C)C)C(=O)N[C@H]1CSSC[C@H](NC(=O)[C@H](C(C)C)NC(=O)CNC(=O)[C@H](CCCNC(=N)N)NC(=O)[C@H](CCCNC(=N)N)NC1=O)C(=O)N[C@@H](CCCNC(=N)N)C(=O)N2,,"Sprague-Dawley rats, female, lung",5 mg/kg,direction not given,increased vein intima score,1 to 2
C[C@]1(CO)Cc2ncn(-c3ccc(C#N)c(Cl)c3)c2C(=O)O1,investigator-assessed,human,"20 mg multiple doses, fasted",,subjects with drug-related TEAEs,11.1%
